Published values from different studies.
Protocols differ between the studies behind these lines.
Target: LIM domain kinase 1 (LIMK1, Homo sapiens, UniProt P53667)

SMILES	assay	conditions	how to read	endpoint	value
COc1ccc(NC(=O)Nc2ccc3c(c2)C(=O)N(C(C)CO)CC(C)C(CN(C)Cc2ccc4c(c2)OCO4)O3)cc1 (stereo not drawn)	kinase activity, KinaseProfiler	0.03 µM, species human	baseline: control	remaining activity	109%
O=C(Cc1ccc(OCc2ccccc2)cc1)NC1(C(=O)O)CCN(C(=O)c2ccc(-c3cccc(Cl)c3)cc2)CC1	enzyme activity, inhibitor	10 µM		activity vs control	74%
C=CC(=O)Nc1cccc(-c2cnc3[nH]cc(C(=O)NC(C)(C)C)c3n2)c1	enzyme activity, inhibitor	0.1 µM		inhibition	34%
COc1cc(Nc2nccc(-c3cnn4nc(OC)ccc34)n2)cc(C(F)(F)F)c1	binding, competition with immobilised ligand	1 µM		remaining binding	99%
CCn1cc(C(=O)O)c(=O)c2c(N)c(F)c(NC3CCCCC3)cc21	kinase activity	0.1 µM, with: ATP at Km		inhibition	-0.7%
Nc1ncc2c(n1)-c1c([nH]c3ccc(C4=CCOCC4)cc13)CCC2	binding, competition with immobilised ligand	1 µM		remaining binding	100%
COC(=O)[C@@]1(C)C=C(C(=O)Nc2cccc(C(=O)Nc3ccc(Nc4nccc(-c5cccnc5)n4)c(C)c3)c2)C(=O)CC1	enzyme activity, inhibitor, radiometric	1 µM		remaining activity	44%
CN1CC[C@@H](COc2cnc(C#N)cc2-c2ccn3nc(NC(=O)C4CC4)cc3c2)C1	enzyme activity, inhibitor	1 µM		inhibition	10%
COc1ccc(C(=O)/C=C/c2ccccc2-c2c[nH]c3ccc(C#N)cc23)c(O)c1	enzyme activity, inhibitor	20 µM		inhibition	-3%
CNC1C[S+]2CC[S+]3CC[S+](C1)[Ru-4]321([N]=C=S)[n]2c3ccc(OC)cc3c3c4c(c5cc(F)c[n+]1c5c32)C(=O)NC4=O (stereo not drawn)	KinomeScan	0.1 µM	baseline: untreated	remaining binding	100%
CNC(=O)C[C@H](Cc1ccc(C#N)cc1)NC(=O)c1cc(-c2ccc(CN[C@H](C)c3ccc(C)cc3)o2)ccc1Cl	enzyme activity, inhibitor	1 µM		activity vs control	102%
C=CC(=O)N1CCCC(n2c(=O)c3ncccc3n(Cc3ccc(Oc4ccccc4)cc3)c2=O)C1 (stereo not drawn)	cell-free assay, competition with immobilised ligand	1 µM		remaining binding	100%
C=CC(=O)N1Cc2nc(-c3cc(-c4cc(Cl)cnc4Cl)c(F)cc3F)n(-c3ccncn3)c2C1	cell-free assay, inhibitor	1 µM		inhibition	-1.1%
NC(=O)C[C@H]1CCc2sc3ncnc(O[C@H]4CC[C@H](N5CCOCC5)CC4)c3c21	enzyme activity, inhibitor	10 µM		inhibition	8%
CNC(=O)C1CCN(c2cc(C)c(F)cc2NC(=O)c2ccc(-c3cc(O)ccc3C)c(C)c2)CC1	binding, competition with immobilised ligand	1 µM		remaining binding	100%

Some of these lines once more:
SMILES	assay	conditions	how to read	endpoint	value
COc1ccc(C(=O)/C=C/c2ccccc2-c2c[nH]c3ccc(C#N)cc23)c(O)c1	enzyme activity, inhibitor	20 µM		inhibition	-3%
C=CC(=O)N1Cc2nc(-c3cc(-c4cc(Cl)cnc4Cl)c(F)cc3F)n(-c3ccncn3)c2C1	cell-free assay, inhibitor	1 µM		inhibition	-1.1%
